Results of several laboratories.
Each numbered part is a random draw from the data of one study; scales do not carry over between parts.

Series 1
Target: Eukaryotic initiation factor 4A-I (EIF4A1, Homo sapiens, UniProt P60842)
Chain of UniProt P60842 (whole entry, looked up): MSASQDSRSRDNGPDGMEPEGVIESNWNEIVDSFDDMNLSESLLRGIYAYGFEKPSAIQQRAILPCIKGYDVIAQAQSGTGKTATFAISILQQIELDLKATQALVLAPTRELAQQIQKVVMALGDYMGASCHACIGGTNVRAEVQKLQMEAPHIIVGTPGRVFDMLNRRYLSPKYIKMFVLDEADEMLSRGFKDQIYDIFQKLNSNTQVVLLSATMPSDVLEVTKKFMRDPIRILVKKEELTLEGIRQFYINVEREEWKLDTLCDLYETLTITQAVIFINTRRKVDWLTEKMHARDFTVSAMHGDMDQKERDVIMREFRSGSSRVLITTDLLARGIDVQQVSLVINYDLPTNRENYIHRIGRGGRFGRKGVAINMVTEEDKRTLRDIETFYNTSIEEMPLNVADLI
Read-out: RNA clamping
Technique: fluorescence polarization
Concentration: concentration not given
Added: FAM-labelled poly r(AG)8 RNA
Reading: higher = more clamping
Under “fluorescence polarization change”, COC(=O)[C@@H]1[C@@H](c2ccccc2)[C@]2(c3ccc(OC)cc3)Oc3cc(OC)cc(OC)c3[C@@]23OC(c2ccccc2)=N[C@@]13O is recorded as -7.7 mP.
COC(=O)[C@@H]1[C@@H](c2ccccc2)[C@]2(c3ccc(OC)cc3)Oc3cc(OC)cc(OC)c3[C@@]23NC(C(C)(C)C)=N[C@@]13O: “fluorescence polarization change” 64.5 mP.
Under “fluorescence polarization change”, COc1cc(OC)c2c(c1)O[C@@]1(c3ccc(Br)cc3)[C@H](c3ccccc3)[C@@H](C(=O)N(C)C)[C@@H](O)[C@@]21O is recorded as 87.4 mP.
COC(=O)[C@@H]1[C@@H](c2ccccc2)[C@]2(c3ccc(OC)cc3)Oc3cc(OC)cc(OC)c3[C@@]23OC(c2ccc(F)cc2)=N[C@@]13O: “fluorescence polarization change” 18.4 mP.
COc1ccc([C@@]23Oc4cc(OC)cc(OC)c4[C@@]24NC(C)=N[C@@]4(O)[C@H](C(=O)N(C)C)[C@H]3c2ccccc2)cc1 — result for “fluorescence polarization change”: 92.4 mP.
Under “fluorescence polarization change”, COc1ccc([C@@]23Oc4cc(OC)cc(OC)c4[C@]2(O)[C@H](O)[C@H](C(=O)N(C)OC)[C@H]3c2ccccc2)cc1 is recorded as 90.8 mP.
COc1ccc([C@@]23Oc4cc(OC)cc(OC)c4[C@]2(O)c2nc(-c4ccc(O)cc4)[nH]c(=O)c2[C@H]3c2ccccc2)cc1: “fluorescence polarization change” 23.2 mP.
COC(=O)Cc1nc2c(c(=O)[nH]1)[C@@H](c1ccccc1)[C@]1(c3ccc(OC)cc3)Oc3cc(OC)cc(OC)c3[C@]21O — result for “fluorescence polarization change”: 32.6 mP.

Series 2
Compound: O=C1CCC(N2Cc3c(ccc4c3OCC43CCN(Cc4ccccc4)CC3)C2=O)C(=O)N1 (stereo not drawn)
Mode: degrader
Technique: HiBiT
Cell line: HEK293
Time: 6 h
CSNK1A1: Casein kinase I isoform alpha (CSNK1A1, Homo sapiens, UniProt P48729)
DNA-binding protein Ikaros: DNA-binding protein Ikaros (Homo sapiens, UniProt Q13422)
GSPT1: Eukaryotic peptide chain release factor GTP-binding subunit ERF3A (GSPT1, Homo sapiens, UniProt P15170)
Chain of UniProt P15170 (whole entry, looked up): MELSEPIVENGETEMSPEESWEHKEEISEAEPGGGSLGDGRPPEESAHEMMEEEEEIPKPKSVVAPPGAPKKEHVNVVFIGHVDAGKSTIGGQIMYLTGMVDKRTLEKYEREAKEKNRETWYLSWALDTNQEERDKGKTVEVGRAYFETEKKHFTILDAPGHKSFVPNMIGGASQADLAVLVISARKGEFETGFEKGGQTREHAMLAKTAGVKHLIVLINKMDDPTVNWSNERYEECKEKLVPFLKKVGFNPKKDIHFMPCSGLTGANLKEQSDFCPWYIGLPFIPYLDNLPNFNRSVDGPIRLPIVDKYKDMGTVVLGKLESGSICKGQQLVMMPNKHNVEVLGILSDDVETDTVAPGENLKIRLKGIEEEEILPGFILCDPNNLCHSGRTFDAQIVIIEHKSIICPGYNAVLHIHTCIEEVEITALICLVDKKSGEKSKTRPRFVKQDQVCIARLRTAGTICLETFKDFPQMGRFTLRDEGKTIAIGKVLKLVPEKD
SALL4: Sal-like protein 4 (SALL4, Homo sapiens, UniProt Q9UJQ4)
Chain of UniProt Q9UJQ4 (whole entry, looked up): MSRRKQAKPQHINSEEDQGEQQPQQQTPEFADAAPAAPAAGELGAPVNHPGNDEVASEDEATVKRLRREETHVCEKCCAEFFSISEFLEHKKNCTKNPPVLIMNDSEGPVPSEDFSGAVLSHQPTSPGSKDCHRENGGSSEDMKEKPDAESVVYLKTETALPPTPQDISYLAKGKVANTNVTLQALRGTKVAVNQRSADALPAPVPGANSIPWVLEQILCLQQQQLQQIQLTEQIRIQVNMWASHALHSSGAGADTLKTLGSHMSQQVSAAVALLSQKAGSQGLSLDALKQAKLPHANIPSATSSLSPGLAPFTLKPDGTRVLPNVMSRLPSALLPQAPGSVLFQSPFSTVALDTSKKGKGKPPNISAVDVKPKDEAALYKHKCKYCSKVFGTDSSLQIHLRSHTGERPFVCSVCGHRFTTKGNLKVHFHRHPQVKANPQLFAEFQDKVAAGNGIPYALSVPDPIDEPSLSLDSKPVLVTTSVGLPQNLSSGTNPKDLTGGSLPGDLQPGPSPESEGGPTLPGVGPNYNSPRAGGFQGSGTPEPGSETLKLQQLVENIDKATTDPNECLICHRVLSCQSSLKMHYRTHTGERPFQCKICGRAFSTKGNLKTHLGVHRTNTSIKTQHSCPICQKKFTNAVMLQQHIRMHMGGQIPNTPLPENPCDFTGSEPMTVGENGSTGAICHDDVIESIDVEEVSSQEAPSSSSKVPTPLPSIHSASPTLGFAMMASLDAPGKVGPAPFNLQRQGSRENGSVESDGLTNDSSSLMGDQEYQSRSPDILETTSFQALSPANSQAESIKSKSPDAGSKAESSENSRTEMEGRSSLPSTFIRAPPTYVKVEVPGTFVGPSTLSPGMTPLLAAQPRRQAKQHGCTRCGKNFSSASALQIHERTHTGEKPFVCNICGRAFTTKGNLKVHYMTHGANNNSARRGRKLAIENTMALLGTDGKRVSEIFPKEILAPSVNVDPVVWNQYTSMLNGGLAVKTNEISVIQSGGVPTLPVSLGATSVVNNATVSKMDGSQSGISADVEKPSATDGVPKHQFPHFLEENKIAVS
Zinc finger protein Aiolos: Zinc finger protein Aiolos (Homo sapiens, UniProt Q9UKT9)
Chain of UniProt Q9UKT9 (whole entry, looked up): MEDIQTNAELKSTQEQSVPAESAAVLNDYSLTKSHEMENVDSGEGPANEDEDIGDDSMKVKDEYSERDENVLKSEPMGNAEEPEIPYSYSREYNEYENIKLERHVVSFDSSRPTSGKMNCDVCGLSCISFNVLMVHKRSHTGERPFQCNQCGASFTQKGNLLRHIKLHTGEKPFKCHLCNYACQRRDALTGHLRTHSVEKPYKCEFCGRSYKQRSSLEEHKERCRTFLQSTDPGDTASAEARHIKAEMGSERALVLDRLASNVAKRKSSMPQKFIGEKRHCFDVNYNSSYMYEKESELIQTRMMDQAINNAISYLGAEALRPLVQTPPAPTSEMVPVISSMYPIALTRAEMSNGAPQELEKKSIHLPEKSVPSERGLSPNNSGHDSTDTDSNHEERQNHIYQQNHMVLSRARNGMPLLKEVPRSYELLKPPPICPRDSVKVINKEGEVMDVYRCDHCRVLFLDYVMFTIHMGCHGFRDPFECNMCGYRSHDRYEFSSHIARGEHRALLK
The remaining protein was 104% (CSNK1A1; 0.04115 µM).
It gave 107% for remaining protein (DNA-binding protein Ikaros; 10 µM).
GSPT1; 3.333 µM — remaining protein: 120%.
It gave 75.1% for remaining protein (SALL4; 1.111 µM).
The remaining protein was 78.2% (SALL4; 0.0005081 µM).
It gave 110% for remaining protein (GSPT1; 1.111 µM).
It gave 107% for remaining protein (GSPT1; 0.1235 µM).
CSNK1A1; 0.004572 µM — remaining protein: 106%.
SALL4; 0.004572 µM — remaining protein: 90.6%.
For Zinc finger protein Aiolos; 0.0001694 µM: remaining protein read 92.8%.
For Zinc finger protein Aiolos; 3.333 µM: remaining protein read 105%.
GSPT1; 0.0005081 µM — remaining protein: 101%.
It gave 102% for remaining protein (DNA-binding protein Ikaros; 0.1235 µM).

Series 3
Target: DNA polymerase theta, ATPase domain (POLQ, Homo sapiens, UniProt O75417)
Chain of UniProt O75417 (whole entry, unmodified, looked up): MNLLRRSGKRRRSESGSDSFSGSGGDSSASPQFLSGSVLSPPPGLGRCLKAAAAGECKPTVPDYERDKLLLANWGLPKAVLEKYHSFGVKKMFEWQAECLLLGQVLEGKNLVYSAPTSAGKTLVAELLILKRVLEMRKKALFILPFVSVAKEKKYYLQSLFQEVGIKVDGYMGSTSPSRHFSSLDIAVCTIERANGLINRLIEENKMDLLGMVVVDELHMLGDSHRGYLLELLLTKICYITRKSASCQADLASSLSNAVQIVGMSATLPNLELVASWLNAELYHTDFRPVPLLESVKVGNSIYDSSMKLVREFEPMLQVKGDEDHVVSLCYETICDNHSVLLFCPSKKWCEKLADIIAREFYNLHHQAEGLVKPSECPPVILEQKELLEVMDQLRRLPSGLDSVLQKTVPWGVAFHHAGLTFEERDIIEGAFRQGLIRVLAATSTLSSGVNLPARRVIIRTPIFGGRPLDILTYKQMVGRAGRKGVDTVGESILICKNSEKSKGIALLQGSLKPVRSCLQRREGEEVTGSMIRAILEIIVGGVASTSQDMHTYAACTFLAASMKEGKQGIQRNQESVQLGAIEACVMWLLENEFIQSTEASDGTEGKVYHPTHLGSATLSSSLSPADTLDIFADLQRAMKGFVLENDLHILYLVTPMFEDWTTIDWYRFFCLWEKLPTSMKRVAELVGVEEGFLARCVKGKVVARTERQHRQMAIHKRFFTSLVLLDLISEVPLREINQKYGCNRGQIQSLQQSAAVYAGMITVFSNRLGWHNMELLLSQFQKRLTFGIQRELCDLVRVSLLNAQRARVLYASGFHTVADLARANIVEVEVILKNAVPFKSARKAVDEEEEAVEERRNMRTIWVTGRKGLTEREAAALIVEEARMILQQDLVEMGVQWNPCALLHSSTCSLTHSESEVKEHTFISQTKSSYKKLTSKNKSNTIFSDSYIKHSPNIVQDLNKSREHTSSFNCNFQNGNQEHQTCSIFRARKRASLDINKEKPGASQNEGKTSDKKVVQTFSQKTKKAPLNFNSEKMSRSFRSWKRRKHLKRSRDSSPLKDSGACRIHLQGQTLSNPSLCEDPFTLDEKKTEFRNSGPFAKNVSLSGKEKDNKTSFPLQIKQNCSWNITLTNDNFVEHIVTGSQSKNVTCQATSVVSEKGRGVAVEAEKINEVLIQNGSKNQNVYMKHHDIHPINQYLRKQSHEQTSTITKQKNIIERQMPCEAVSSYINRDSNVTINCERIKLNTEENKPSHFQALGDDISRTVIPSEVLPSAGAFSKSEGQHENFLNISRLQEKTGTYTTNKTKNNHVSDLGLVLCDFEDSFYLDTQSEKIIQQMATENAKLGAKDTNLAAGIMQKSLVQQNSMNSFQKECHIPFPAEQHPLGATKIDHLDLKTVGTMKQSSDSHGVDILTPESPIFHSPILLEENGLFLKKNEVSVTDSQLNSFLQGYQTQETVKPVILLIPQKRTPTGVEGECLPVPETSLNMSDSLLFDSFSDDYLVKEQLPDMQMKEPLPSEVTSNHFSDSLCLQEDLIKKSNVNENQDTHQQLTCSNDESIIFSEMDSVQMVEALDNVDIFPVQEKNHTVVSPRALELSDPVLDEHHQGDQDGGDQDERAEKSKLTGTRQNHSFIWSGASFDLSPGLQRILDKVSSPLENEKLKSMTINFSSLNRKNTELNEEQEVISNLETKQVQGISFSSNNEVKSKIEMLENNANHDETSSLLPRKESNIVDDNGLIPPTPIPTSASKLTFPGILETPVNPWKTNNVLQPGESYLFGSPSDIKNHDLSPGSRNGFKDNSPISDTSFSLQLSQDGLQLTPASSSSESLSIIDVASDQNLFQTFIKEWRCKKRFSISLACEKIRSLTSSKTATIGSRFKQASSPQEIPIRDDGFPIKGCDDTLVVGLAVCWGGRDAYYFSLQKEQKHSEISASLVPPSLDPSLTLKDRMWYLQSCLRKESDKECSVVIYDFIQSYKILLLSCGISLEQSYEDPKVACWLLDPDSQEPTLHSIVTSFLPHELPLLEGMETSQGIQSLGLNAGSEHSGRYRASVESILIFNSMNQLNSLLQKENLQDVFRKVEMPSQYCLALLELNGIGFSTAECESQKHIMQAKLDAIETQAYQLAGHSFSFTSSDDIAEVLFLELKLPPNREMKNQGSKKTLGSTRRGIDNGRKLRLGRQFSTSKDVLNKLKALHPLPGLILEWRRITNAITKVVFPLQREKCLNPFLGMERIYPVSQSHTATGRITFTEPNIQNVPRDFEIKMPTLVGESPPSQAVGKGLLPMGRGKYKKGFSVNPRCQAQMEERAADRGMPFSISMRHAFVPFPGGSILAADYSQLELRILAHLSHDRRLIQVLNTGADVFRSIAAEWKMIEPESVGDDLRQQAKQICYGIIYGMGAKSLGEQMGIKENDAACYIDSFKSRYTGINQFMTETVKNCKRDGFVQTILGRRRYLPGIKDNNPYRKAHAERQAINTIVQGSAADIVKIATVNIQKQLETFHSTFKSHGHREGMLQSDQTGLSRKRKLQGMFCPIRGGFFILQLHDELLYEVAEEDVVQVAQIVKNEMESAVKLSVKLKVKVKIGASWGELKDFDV
Read-out: enzyme activity
Mode: inhibitor
Concentration: 77 µM
Relative to: untreated
For CC1=C2[C@H]3OC(=O)[C@@H](C)[C@@H]3CC[C@@]2(C)C=CC1=O, the remaining activity was 103%.
C[N+](C)(C)CC#CCN1CCCC1=O has a remaining activity of 94.7%.
For C[N+](C)(C)CCOC(=O)CBr, the remaining activity was 99%.
COC1=C[C@@H]2[C@@H]3Cc4ccc(OC)c(O)c4[C@]2(CCN3C)CC1=O gave a remaining activity of 93.6%.
With OC1CCCCC1N1CCC(c2ccccc2)CC1 (stereo not drawn) the remaining activity was 102%.

Mixed results
CC(=O)N1CCC(c2ccc(C(=O)NC3=NCCN3)cc2C(F)(F)F)CC1 gave a remaining binding of 90% (CDPK1 (Plasmodium falciparum, UniProt P62344); cell-free assay, competition with immobilised ligand; 1 µM).
CC(C)(O)c1cncc(-c2nc3ccc(F)cc3n2C2CC2)c1 gave a remaining binding of 100% (pknB (Mycobacterium tuberculosis, UniProt P9WI81); cell-free assay, competition with immobilised ligand; 1 µM).
With CC(=O)Nc1c(C(C)=O)c(=O)n(C)c2nc(-c3ccc(Cl)cc3Cl)c(-c3ccc(Cl)cc3)cc12 the remaining binding was 100% (CRK2 (Plasmodium falciparum, UniProt P61075); cell-free assay, competition with immobilised ligand; 1 µM).
For CC(=O)C1=C(C)N(c2cccc(C(F)(F)F)c2)C(=O)N[C@H]1c1ccc(C#N)nc1, the inhibition was 27.3% (CHRM3 (Homo sapiens, UniProt P20309); ligand displacement; 10 µM).

Some of these lines once more (mixed results):
CC(C)(O)c1cncc(-c2nc3ccc(F)cc3n2C2CC2)c1 gave a remaining binding of 100% (pknB (Mycobacterium tuberculosis, UniProt P9WI81); cell-free assay, competition with immobilised ligand; 1 µM).
For CC(=O)C1=C(C)N(c2cccc(C(F)(F)F)c2)C(=O)N[C@H]1c1ccc(C#N)nc1, the inhibition was 27.3% (CHRM3 (Homo sapiens, UniProt P20309); ligand displacement; 10 µM).
